# Published values from different studies.
# Each numbered part is a random draw from the data of one study; scales do not carry over between parts. Positions count from the first letter of the parent shown.

# Series 1
# Target: Ras GTPase-activating protein-binding protein 1, C-terminal RGG region (G3BP1, Homo sapiens, UniProt Q13283)
# UniProt Q13283, sequence (whole entry, looked up): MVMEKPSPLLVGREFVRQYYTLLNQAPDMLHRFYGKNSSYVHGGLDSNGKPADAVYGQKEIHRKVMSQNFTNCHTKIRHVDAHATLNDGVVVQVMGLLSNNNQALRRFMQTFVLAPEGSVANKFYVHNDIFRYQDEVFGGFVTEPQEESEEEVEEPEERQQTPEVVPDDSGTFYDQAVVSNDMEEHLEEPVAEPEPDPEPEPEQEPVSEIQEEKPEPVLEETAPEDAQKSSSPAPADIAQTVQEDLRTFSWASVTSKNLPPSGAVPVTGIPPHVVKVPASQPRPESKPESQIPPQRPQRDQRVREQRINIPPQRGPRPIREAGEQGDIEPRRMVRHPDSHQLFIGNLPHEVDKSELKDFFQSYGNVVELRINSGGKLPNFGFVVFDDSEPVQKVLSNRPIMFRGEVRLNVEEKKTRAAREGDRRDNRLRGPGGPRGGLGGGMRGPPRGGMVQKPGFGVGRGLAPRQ
# Method: RNA Bind-n-Seq
# Molecule type: RNA
# Medium: in vitro
# Tested at: 1 µM
# Notes: whole 134-nt RNA, ends assumed
# Added: 150 mM KCl
# Reference: input library
# Direction: higher = stronger binding
Oligonucleotide,log2 enrichment
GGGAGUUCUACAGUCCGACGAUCUUCUUACAUGUGUAAUCUUCUUCUCCUAGGGCGGCAGAACUCAUGACAAGAACAAGCUCUGUGGUGACACUGGAAGUAGCAAAGCAGGGUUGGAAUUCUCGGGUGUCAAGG,-0.351
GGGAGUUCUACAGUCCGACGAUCUCCUGUGCUACACAUCGUAUGUACCGAAUCGGGUUUUUUGGGGUUUUUUGGUUUUUUGGAAAGUAUUAUGUUACGCCGUUCGGAUCUGCAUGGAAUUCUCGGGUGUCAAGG,-0.363
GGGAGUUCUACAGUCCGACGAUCUGGCCCUGGUGUCAUGCGGGGAGGAAGAGGUGGCCUCAUGGAUCGUGGUGGUCCCGGUGGAAUGUUCAGAGGUGGCCGUGGUGGAGACAGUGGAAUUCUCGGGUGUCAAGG,2.01
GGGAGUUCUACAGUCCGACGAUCUCCUGUGCUACACAUCGUAUGUACCGAAUCGGGCCCCCCGGGGCCCCCCGGCCCCCCGGAAAGUAUUAUGUUACGCCGUUCGGAUCUGCAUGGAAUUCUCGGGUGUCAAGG,-0.997
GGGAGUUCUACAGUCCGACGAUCCAAGUCCUGUGCUACACAUCGUAUGUACCGAAUCGGGAGGGAAAGGGUUUUUGGGAAAGUAUUAUGUUACGCCGUUCGGAUCUGCACUUCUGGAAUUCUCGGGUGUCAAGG,1.25
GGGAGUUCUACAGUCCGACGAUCGCAGGAAGUAAAAACAAAUGGAAAUGCUUCGGAUAGUGGCAGGGGUGGGGGUUGCUAAGGAAAGGGUGGGAUGGGCGUGGGUAAAGAGUUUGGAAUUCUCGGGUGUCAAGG,1.25
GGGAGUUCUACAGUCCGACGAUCUUAGAAGAAGAAGAUGGAGUGUGGGAGAAUGGACUUUCCUAUGAAUGCCGUACUCUGCUUUUCAAAGCAGUUCACAAUCUAUUGGAACGGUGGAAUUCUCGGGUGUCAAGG,-1.94
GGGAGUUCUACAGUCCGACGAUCUGUGCUACACAUCGUAUGUACCGAAUCGGGGAAAAAGGGGAAAAAAAGGGGAAAAAAAGGGGAAAGUAUUAUGUUACGCCGUUCGGAUCUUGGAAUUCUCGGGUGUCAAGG,0.203
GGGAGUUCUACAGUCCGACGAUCCACAGACAACACGCACCCACACAGACACAGAGGGAAGGGGUUGGAAAGGGGACAGGGUGCACAGCAGGGCGGGGUAGGACCCCAGCCCCUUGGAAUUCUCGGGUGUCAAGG,0.172

# Series 2
# Target: UBE2L3 UBC core domain (UniProt P68036)
# UniProt P68036, sequence (whole entry, looked up): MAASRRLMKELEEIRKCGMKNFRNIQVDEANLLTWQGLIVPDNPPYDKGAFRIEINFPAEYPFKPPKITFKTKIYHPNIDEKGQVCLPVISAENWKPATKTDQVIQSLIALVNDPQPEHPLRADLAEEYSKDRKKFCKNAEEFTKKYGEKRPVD
# Method: yeast two-hybrid
# Medium: yeast
# Notes: mostly zero background
# Reference: not given
# Direction: higher = stronger interaction
# B1: RNF7 RING domain (UniProt Q9UBF6); chain AICRVQVMDACLRCQAENKQEDCVVVWGECNHSFHNCCMSLWVKQNNRCPLCQQDWVVQRIGK
# B2: TRIM2 RING domain (UniProt Q9C040); chain VRQIDKQFLICSICLERYKNPKVLPCLHTFCERCLQNYIPAHSLTLSCPVCRQTSILPEKGV
# B3: RMND5B RING domain (UniProt Q96G75); chain MKCWYHSVFACPILRQQTSDSNPPIKLICGHVISRDALNKLINGGKLKCPYCPMEQNPADGK
# B4: RNF11 RING domain (UniProt Q9Y3C5); chain RDGSEKKIRECVICMMDFVYGDPIRFLPCMHIYHLDCIDDWLMRSFTCPSCMEPVDAALLSS
Sequence,lacZ reporter activity
B1 (RNF7 RING domain),0
GSEEEEIPFRCFICRQAFQNPVVTKCRHYFCESCALEHFRATPRCYICDQPTGGIFNPA (RNF113B RING domain (UniProt Q8IZP6)),0
AAQLLEEKLTCAICLGLYQDPVTLPCGHNFCGACIRDWWDRCGKACPECREPFPDGAELR (TRIM65 RING domain (UniProt Q6PJ69)),0
EDVLSKDAGECAICLEELQQGDTIARLPCLCIYHKGCIDEWFEVNRSCPEHPSD (ZNRF2 RING domain (UniProt Q8NHG8)),0
B2 (TRIM2 RING domain),0
B3 (RMND5B RING domain),0
B4 (RNF11 RING domain),0

# Series 3
# Target: Interferon regulatory factor 7, full length, phosphomimetic (IRF7, Homo sapiens, UniProt Q92985, residues 1-503, S101K/S471D/S472D/S475D/S476D/S477D/S483D/S484D/S487D)
# Method: protein-binding microarray
# Molecule type: double-stranded DNA, one strand shown
# Medium: in vitro
# Tested at: 250 nM
# Notes: 60-bp whole probe
# Added: salmon DNA 0.4 mg/ml
# Reference: random background probes
# Direction: higher = stronger binding
# Shared flanks, not repeated: GCCTAGCAC … GTCTTGATTCGCTTGACGCTGCTG
# Construct (chain): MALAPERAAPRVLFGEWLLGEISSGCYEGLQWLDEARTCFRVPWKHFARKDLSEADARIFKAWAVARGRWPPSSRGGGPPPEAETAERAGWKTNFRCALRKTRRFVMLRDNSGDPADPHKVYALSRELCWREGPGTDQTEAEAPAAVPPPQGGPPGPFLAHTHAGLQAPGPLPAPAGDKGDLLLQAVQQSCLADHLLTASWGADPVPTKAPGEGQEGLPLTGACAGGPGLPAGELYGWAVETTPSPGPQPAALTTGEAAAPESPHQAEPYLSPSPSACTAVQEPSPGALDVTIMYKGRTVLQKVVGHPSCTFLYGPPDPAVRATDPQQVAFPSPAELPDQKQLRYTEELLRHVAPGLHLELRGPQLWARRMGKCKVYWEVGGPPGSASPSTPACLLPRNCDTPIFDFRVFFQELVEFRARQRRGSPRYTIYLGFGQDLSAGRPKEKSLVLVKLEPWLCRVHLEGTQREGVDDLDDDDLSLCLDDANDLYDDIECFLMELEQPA
Oligonucleotide,log fluorescence [z-score]
TTCGGTATCCTTCTCCTTTAGTGCTAG,0.306
TCTCTTTTGGCTTTCCTTTAGTGCTAG,1.36
TTAGAACTGACTCTCGATTAGTGCTAG,0.0274
TTAGAACTGAGTTCCGATTAGTGCTAG,0.869
GACGGAATCGGTATCGGGACGTGCTAG,0.461
CTCACCGCCAACCCAGTTCCGTGCTAG,0.31
GACGATATCAGAATGGAGACGTGCTAG,-0.133
GACGGTTTCCTTTCCCTGAAGTGCTAG,5.48
TGCCTTTTGCTTTACTGATGGTGCTAG,0.592
GTGGGGGGTGTGAGTGGGTGGTGCTAG,4.26
GTCGATTTCGGGACTGGAGACGTGCTA,0.71
GACGGTATCGGTATGGGGACGTGCTAG,0.637
AACGATTTCAGACTGGAGACGTGCTAG,0.0669
GACGGTTTCGTCACTGGGGACGTGCTA,1.97
GCCAAAAGTGTAAATGTAAGGTGCTAG,-0.417
CACGGACTGCTACTGCTGACGTGCTAG,-0.757
GAAAGAATCACAACTAGGAAGGTGCTA,-0.235
GACGGTCTCTGACTGGGGACGTGCTAG,-0.172
TTAGGGCTGCTACTGCTTTAGTGCTAG,-1.09

# Series 4
# Target: ABI1, truncated, D143A, DHFR fusion (Arabidopsis thaliana)
# Method: DHFR PCA, deep sequencing
# Medium: yeast
# Notes: methotrexate growth selection, single substitutions
# Added: (+)-ABA 17 µM
# Reference: wild-type fitted maximum
# Direction: higher = stronger binding
# Starting sequence: PYL1, truncated, DHFR fusion (Arabidopsis thaliana); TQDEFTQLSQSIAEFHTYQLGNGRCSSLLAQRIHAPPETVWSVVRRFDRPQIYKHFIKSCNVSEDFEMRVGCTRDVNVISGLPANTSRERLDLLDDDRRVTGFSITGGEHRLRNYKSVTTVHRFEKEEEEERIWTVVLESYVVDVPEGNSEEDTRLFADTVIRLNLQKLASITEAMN; partner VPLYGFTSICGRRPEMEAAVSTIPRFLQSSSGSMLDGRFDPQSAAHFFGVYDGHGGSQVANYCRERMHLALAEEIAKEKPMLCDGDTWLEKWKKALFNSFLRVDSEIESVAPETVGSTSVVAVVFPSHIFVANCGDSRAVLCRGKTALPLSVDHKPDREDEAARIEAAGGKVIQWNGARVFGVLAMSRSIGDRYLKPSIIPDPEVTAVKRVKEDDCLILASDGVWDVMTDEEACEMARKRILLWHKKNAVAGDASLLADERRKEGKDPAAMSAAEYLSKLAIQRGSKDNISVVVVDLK
Substitution,relative binding score [%]
N114H,69.6
D48N,43.9
C60T,71.4
E125M,88.5
V143Q,3.9
R88V,88.7
Q51E,77.9
L112A,-1.98
Y18E,50
W41P,11.5
E131Q,86.9
L112G,-1.22
S87A,47.9
T17Q,61.6
R74N,-8.15
R123C,73.4
R45K,65
R111D,-1.99
H16T,6.37
E130T,81.1

# Series 5
# Target: CCNB1, cyclin fold, Cln2 fusion (human)
# Method: yeast growth competition, sequencing
# Medium: yeast
# Notes: weak parent motif
# Reference: not given
# Direction: higher = stronger binding
# Starting sequence: PLK5 docking peptide (human); IFRKVGQRLLTQC
Substitution,normalised enrichment score
IFRKVGQALLTQC [R8A],0.668
IFRKVGQRLLTAC [Q12A],0.743
IARKVGQRLLTQC [F2A],0.423
IFRKVGQRLLTQA [C13A],0.273
IFRKVGQRLLAQC [T11A],0.837
IFRKVGARLLTQC [Q7A],0.628

# For quick reference, copied from above (series 5):
Substitution,normalised enrichment score
IFRKVGARLLTQC [Q7A],0.628
IFRKVGQALLTQC [R8A],0.668
IFRKVGQRLLAQC [T11A],0.837
IFRKVGQRLLTQA [C13A],0.273
IARKVGQRLLTQC [F2A],0.423
IFRKVGQRLLTAC [Q12A],0.743
